Measurements collected from several papers.
Each numbered part is a random draw from the data of one study; scales do not carry over between parts.
UniProt P08588, sequence (whole entry, looked up): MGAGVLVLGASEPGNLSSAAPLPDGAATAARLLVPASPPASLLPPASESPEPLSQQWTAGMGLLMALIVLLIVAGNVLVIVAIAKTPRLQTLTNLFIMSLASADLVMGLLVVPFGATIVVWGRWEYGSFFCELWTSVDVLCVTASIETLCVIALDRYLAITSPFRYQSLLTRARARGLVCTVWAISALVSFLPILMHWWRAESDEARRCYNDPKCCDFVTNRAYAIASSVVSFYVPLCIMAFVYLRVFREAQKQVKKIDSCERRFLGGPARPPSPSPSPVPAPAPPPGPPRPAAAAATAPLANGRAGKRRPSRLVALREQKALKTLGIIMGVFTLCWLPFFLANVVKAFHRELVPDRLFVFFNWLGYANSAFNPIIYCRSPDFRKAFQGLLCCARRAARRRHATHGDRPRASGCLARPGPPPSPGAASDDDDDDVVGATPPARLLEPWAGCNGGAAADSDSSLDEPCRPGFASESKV
UniProt Q5BJF2, sequence (whole entry, looked up): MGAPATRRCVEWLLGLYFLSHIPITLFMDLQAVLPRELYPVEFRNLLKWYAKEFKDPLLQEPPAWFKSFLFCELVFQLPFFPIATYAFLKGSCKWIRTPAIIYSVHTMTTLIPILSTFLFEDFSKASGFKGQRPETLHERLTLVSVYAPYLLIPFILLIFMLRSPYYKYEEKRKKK
UniProt P21917, sequence (whole entry, looked up): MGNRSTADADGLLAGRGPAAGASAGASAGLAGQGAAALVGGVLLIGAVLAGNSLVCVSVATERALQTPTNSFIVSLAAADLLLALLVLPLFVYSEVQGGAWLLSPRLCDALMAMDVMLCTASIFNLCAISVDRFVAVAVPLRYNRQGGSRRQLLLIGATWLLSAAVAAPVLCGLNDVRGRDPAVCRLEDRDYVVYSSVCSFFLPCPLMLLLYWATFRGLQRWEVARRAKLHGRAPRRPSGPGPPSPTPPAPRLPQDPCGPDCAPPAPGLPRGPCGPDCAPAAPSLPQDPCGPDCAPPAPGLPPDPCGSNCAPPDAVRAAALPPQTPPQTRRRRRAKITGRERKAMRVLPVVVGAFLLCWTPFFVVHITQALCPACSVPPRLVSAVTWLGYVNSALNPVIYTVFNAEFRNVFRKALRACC
UniProt Q99720, sequence (whole entry, looked up): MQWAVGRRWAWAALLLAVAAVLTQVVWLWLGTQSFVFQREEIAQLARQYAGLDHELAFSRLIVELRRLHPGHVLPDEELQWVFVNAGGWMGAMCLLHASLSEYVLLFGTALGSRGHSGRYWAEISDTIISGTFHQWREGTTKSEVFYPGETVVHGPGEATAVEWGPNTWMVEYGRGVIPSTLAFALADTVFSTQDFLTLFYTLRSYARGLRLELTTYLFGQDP
UniProt P35348, sequence (whole entry, looked up): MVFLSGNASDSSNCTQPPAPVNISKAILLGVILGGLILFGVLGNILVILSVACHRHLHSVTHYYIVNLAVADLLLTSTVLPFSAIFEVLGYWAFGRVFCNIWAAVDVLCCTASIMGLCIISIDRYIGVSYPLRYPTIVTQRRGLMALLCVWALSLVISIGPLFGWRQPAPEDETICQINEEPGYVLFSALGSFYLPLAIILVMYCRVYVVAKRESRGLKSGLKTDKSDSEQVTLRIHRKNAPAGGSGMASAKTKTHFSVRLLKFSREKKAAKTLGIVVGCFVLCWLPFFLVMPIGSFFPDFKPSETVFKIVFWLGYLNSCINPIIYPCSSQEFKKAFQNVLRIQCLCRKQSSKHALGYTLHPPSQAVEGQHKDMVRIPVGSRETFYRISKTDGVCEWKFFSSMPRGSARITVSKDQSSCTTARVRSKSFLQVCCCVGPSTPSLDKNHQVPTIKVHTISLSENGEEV
UniProt P50406, sequence (whole entry, looked up): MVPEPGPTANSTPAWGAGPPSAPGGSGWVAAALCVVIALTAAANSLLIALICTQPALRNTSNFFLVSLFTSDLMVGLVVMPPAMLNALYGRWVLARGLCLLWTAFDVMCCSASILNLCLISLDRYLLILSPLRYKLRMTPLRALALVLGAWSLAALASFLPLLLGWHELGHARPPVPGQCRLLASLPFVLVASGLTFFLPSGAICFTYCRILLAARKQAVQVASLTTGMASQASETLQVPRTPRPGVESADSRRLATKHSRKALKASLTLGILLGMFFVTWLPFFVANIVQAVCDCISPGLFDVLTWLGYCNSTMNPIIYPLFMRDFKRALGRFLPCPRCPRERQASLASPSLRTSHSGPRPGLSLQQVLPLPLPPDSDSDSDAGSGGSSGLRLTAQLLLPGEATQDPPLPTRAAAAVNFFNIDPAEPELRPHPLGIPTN
UniProt P07550, sequence (whole entry, looked up): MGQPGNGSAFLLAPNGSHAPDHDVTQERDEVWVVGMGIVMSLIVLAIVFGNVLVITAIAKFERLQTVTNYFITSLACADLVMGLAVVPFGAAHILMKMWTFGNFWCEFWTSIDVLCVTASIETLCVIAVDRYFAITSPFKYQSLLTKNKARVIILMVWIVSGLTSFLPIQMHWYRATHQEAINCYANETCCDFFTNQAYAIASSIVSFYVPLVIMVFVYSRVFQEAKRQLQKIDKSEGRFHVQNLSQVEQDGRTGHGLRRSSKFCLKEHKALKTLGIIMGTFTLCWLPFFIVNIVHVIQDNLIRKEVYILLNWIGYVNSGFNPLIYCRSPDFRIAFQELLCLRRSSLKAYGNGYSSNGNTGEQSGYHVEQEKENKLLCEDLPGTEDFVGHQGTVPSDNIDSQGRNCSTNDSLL
UniProt P14416, sequence (whole entry, looked up): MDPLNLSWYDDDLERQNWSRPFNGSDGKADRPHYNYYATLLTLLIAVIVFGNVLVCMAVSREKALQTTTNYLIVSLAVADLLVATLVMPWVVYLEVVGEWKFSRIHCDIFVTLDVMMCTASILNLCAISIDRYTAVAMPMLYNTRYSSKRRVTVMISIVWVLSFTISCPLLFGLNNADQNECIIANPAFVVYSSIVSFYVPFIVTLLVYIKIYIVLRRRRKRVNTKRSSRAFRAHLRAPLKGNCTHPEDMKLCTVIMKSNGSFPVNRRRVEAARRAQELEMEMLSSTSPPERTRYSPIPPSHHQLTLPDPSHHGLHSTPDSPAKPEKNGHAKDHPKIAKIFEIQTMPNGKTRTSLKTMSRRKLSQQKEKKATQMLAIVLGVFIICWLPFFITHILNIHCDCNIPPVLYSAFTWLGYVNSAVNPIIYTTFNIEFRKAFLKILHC
UniProt Q9Y5N1, sequence (whole entry, looked up): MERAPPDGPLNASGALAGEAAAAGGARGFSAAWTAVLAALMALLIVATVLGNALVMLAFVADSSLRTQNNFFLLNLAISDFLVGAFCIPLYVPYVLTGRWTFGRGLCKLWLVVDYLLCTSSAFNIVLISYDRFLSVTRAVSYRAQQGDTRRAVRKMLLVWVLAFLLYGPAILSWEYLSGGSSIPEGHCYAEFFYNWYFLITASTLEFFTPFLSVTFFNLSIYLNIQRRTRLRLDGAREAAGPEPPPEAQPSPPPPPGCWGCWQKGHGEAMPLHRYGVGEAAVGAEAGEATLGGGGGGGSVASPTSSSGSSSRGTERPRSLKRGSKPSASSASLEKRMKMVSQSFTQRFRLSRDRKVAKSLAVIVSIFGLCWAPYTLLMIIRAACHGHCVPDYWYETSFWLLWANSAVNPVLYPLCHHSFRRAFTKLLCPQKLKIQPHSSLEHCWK
UniProt P08913, sequence (whole entry, looked up): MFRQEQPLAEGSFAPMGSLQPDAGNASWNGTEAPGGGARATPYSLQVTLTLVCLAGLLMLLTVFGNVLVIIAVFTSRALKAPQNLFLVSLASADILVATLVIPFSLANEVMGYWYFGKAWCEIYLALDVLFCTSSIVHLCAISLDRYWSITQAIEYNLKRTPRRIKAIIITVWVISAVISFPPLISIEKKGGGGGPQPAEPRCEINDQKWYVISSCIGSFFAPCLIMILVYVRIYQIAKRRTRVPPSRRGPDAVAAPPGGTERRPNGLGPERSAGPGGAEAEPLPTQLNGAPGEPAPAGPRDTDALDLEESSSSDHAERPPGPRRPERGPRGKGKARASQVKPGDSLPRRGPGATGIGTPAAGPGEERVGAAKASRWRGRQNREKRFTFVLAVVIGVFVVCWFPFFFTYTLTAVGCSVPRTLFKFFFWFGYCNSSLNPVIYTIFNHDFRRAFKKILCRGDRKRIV
UniProt P35462, sequence (whole entry, looked up): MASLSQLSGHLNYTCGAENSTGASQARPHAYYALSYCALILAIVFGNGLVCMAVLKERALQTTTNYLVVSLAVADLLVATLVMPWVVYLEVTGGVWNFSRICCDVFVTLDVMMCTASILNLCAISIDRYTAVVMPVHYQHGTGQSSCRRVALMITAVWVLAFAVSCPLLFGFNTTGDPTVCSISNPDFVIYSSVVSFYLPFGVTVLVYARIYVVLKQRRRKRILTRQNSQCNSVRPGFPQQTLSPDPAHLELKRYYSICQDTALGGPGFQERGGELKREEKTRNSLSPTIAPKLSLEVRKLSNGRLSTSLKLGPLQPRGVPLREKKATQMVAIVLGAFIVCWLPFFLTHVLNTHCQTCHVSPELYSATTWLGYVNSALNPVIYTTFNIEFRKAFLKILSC

Sample 1
Cell line: HaCaT
Concentration: 100 µM
Time: 18 h
With `CC(C)[C@H]1CC[C@H](C(=O)N[C@H](Cc2ccccc2)C(=O)O)CC1` the viability was 116%.
The viability of `NS(=O)(=O)c1cc2c(cc1Cl)NCNS2(=O)=O` is reported as 97%.
`CCN(CC)CCOc1ccc2c(c1)C(=O)c1cc(OCCN(CC)CC)ccc1-2` has a viability of 35.4%.
For `CC(C)NCC(O)COc1ccc(COCCOC(C)C)cc1` (racemic), the viability was 94.9%.
`OC[C@H]1O[C@@H](c2ccc(F)c(Cc3cc4ccccc4s3)c2)[C@H](O)[C@@H](O)[C@@H]1O` gave a viability of 99.1%.
`O=C(O)CCc1nc(-c2ccccc2)c(-c2ccccc2)o1` has a viability of 99.8%.
With `Nc1nc(=O)[nH]cc1F` the viability was 117%.
`CO[C@H]1/C=C/O[C@@]2(C)Oc3c(C)c(O)c4c(c3C2=O)C2=NC3(CCN(CC(C)C)CC3)NC2=C(NC(=O)/C(C)=C\C=C\[C@H](C)[C@H](O)[C@@H](C)[C@@H](O)[C@@H](C)[C@H](OC(C)=O)[C@@H]1C)C4=O` gave a viability of 88.3%.
The viability of `COc1c2occc2cc2ccc(=O)oc12` is reported as 82.8%.
For `O=C(/C=C/C=C/c1ccc2c(c1)OCO2)N1CCCCC1`, the viability was 76.4%.

Sample 2
Target: Serine/threonine-protein kinase Nek7 (NEK7, Homo sapiens, UniProt Q8TDX7)
Observed: enzyme activity
Mode: inhibitor
Concentration: 0.5 µM
Baseline: control
Construct (Q8TDX7 1-302): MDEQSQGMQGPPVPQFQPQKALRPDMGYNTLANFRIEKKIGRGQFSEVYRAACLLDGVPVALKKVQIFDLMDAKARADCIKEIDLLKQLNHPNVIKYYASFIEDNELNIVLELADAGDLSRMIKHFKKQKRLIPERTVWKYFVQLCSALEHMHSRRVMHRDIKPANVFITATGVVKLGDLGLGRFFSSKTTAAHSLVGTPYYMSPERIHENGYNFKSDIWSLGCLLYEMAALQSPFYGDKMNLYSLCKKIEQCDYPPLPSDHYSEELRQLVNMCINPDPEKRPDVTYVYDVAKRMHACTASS
With `c1cc(-c2cnn3cc(-c4ccc(OCCN5CCCCC5)cc4)cnc23)ccn1` the remaining activity was 87.3%.
`CCCCc1c(-c2ccc(O)cc2)[nH]c2nccnc12` gave a remaining activity of 111%.
`Nc1nc(Nc2ccc(S(N)(=O)=O)cc2)nn1C(=S)Nc1c(F)cccc1F` gave a remaining activity of 82.6%.
`O=C1c2ccccc2-c2nc3nnnn3nc21` has a remaining activity of 83.6%.
`CC(C)(C)c1nc2c3cc[nH]c(=O)c3c3cc(F)ccc3c2[nH]1` has a remaining activity of 76.5%.
With `C[C@@H](N)[C@H]1CC[C@H](C(=O)Nc2ccncc2)CC1` the remaining activity was 106%.
With `CNc1cc2c(Nc3cccc(Br)c3)ncnc2cn1` the remaining activity was 90.4%.
`NC(=O)c1ccc(-c2nc(-c3ccc4c(c3)OCCO4)c(-c3ccccn3)[nH]2)cc1` has a remaining activity of 98.5%.
With `COc1cc2c(N3CCN(C(=O)Nc4ccc(OC(C)C)cc4)CC3)ncnc2cc1OCCCN1CCCCC1` the remaining activity was 93.4%.
The remaining activity of `CC(C)n1cnc2c(Nc3cccc(Cl)c3)nc(NCCO)nc21` is reported as 93.9%.
For `CC(C)N(CCC(=O)c1ccc2ccccc2c1)Cc1ccccc1`, the remaining activity was 95.2%.
With `COc1cc2c(Nc3ccc(Br)cc3F)ncnc2cc1OCC1CCN(C)CC1` the remaining activity was 99%.
`O=C1NC(=O)/C(=C/c2ccc3c(c2)OC(F)(F)O3)S1` gave a remaining activity of 105%.

Sample 3
Compound: CCCCN(CCCC)C(=O)CN1C[C@@H](c2cc(OC)c3c(c2)OCO3)[C@H](C(=O)O)[C@H]1CC(C)(C)CCC
Observed: binding
Method: radioligand binding
Concentration: 10 µM
It gave 17% for inhibition (Histamine H3 receptor (HRH3, Homo sapiens, UniProt Q9Y5N1)).
For Alpha-2A adrenergic receptor (ADRA2A, Homo sapiens, UniProt P08913): inhibition read 19.1%.
For Beta-1 adrenergic receptor (ADRB1, Homo sapiens, UniProt P08588): inhibition read -10.8%.
The inhibition was 87.1% (D(4) dopamine receptor (DRD4, Homo sapiens, UniProt P21917)).
The inhibition was 93.6% (Sigma non-opioid intracellular receptor 1 (SIGMAR1, Homo sapiens, UniProt Q99720)).
Beta-2 adrenergic receptor (ADRB2, Homo sapiens, UniProt P07550) — inhibition: -6.31%.
The inhibition was 41.3% (Sigma intracellular receptor 2 (TMEM97, Homo sapiens, UniProt Q5BJF2)).
For D(3) dopamine receptor (DRD3, Homo sapiens, UniProt P35462): inhibition read 16.6%.
The inhibition was 33.5% (5-hydroxytryptamine receptor 6 (HTR6, Homo sapiens, UniProt P50406)).
It gave 21.3% for inhibition (D(2) dopamine receptor (DRD2, Homo sapiens, UniProt P14416)).
The inhibition was 23.3% (Alpha-1A adrenergic receptor (ADRA1A, Homo sapiens, UniProt P35348)).

Sample 4
Target: Calcium/calmodulin-dependent protein kinase type II subunit alpha (CAMK2A, Homo sapiens, UniProt Q9UQM7)
UniProt Q9UQM7, sequence (whole entry, looked up): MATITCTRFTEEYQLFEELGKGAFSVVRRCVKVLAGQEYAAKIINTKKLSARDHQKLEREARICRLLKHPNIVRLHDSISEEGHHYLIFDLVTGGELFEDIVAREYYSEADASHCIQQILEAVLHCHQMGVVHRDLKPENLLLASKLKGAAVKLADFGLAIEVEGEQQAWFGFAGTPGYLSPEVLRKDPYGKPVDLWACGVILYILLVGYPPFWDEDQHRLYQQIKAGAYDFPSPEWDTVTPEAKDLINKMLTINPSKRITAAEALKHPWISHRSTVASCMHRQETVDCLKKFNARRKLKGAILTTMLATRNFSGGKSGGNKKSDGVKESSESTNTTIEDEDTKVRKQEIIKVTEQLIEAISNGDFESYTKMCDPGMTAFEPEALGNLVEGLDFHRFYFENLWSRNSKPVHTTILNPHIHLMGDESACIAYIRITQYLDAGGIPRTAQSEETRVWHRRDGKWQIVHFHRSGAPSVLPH
Observed: enzyme activity
Mode: inhibitor
Concentration: 10 µM
`COc1cc2c(cc1OC)OC(C)(C)C=C2` gave an inhibition of 3%.
The inhibition of `O=C1c2ccccc2C(=O)C1c1ccccc1` is reported as -3%.
The inhibition of `COc1cc(O)c2c(=O)c(OC)c(-c3ccc(O)c(OC)c3)oc2c1` is reported as 4%.
`C/C(=C/CC[C@]1(CO)CC[C@]2(C)[C@H](CC[C@@H]3[C@@]4(C)CC[C@H](O[C@@H]5O[C@H](CO)[C@@H](O)[C@H](O)[C@H]5O[C@@H]5O[C@H](CO)[C@@H](O)[C@H](O)[C@H]5O)[C@@](C)(CO[C@@H]5O[C@H](CO)[C@@H](O)[C@H](O)[C@H]5O)[C@@H]4CC[C@]32C)[C@H]1O)CO` gave an inhibition of 8%.
The inhibition of `CC(=O)N1CCN(c2ccc(OC[C@H]3CO[C@](Cn4ccnc4)(c4ccc(Cl)cc4Cl)O3)cc2)CC1` is reported as 1%.
`Cc1cnc(C(=O)N[C@H]2CCCCC/C=C\[C@@H]3C[C@@]3(C(=O)NS(=O)(=O)C3CC3)NC(=O)[C@@H]3C[C@@H](Oc4nc5ccccc5c5ccccc45)CN3C2=O)cn1` gave an inhibition of -7%.
`CCCCCCCCCCCCCC(=O)OCC(O)CO` (centres unmarked) gave an inhibition of 3%.
The inhibition of `OC[C@H]1O[C@@H](O[C@@H]2OC=C[C@H]3[C@H](O)[C@@H]4O[C@]4(CO)[C@@H]23)[C@H](O)[C@@H](O)[C@@H]1O` is reported as -39%.
`OC[C@H]1O[C@@](CO)(OC[C@@]2(OC[C@@]3(OC[C@@]4(O[C@H]5O[C@H](CO)[C@@H](O)[C@H](O)[C@H]5O)O[C@H](CO)[C@@H](O)[C@@H]4O)O[C@H](CO)[C@@H](O)[C@@H]3O)O[C@H](CO)[C@@H](O)[C@@H]2O)[C@@H](O)[C@@H]1O` has an inhibition of 25%.
With `CC(C)(C)NCC(O)COc1cccc2c1CCC(=O)N2` (centres unmarked) the inhibition was -5%.

Some of these lines once more (sample 3):
Beta-2 adrenergic receptor (ADRB2, Homo sapiens, UniProt P07550) — inhibition: -6.31%.
For D(3) dopamine receptor (DRD3, Homo sapiens, UniProt P35462): inhibition read 16.6%.
The inhibition was 23.3% (Alpha-1A adrenergic receptor (ADRA1A, Homo sapiens, UniProt P35348)).
It gave 21.3% for inhibition (D(2) dopamine receptor (DRD2, Homo sapiens, UniProt P14416)).
The inhibition was 41.3% (Sigma intracellular receptor 2 (TMEM97, Homo sapiens, UniProt Q5BJF2)).
